Published values gathered from unrelated publications.
Each line is one published result; not all experiments were run side by side. ± gives the spread as reported.

Molecule = CC(C)C[C@@H](NC(=O)[C@H]1CCCN1C(=O)[C@H]1CCCN1C(=O)[C@@H](CCCNC(=N)N)NC(=O)[C@@H](CCCNC(=N)N)NC(=O)[C@@H](CCCNC(=N)N)NC(=O)[C@@H](CCC(N)=O)NC(=O)[C@@H](CCCNC(=N)N)NC(=O)[C@@H](CCCNC(=N)N)NC(=O)[C@@H](CCCCN)NC(=O)[C@@H](CCCCN)NC(=O)[C@@H](CCCNC(=N)N)NC(=O)CNC(=O)[C@H](N)Cc1ccc(O)cc1)C(=O)N[C@H](CCCNC(=N)N)C(=O)N[C@H](CCCCN)C(=O)N[C@H](CCCCN)C(=O)N[C@H](CCCCN)C(=O)N[C@H](CCCCN)C(=O)N[C@H](CCCCN)C(=O)N[C@H](Cc1c[nH]cn1)C(N)=O; test = 8-Br-cGMP-induced vasodilation; test system = mouse, mesenteric resistance arteries; conditions = dose not given, intraluminal perfusion, 80 mmHg, added: 8-Br-cGMP; endpoint = inhibition; value = ~55%
Molecule = CC(C)C[C@H](NC(=O)[C@H](Cc1ccccc1)NC(=O)CNC(=O)CNC(=O)[C@H](Cc1ccc(O)cc1)NC(=O)OC(C)c1ccccc1[N+](=O)[O-])C(=O)O (stereo partly drawn); test = GIRK current, MOR agonist; test system = rat, locus coeruleus slices; conditions = 10 µM, added: 100 mW 355 nm light, 50 ms; scale = reference: compound over references; endpoint = activation time ratio; value = ~1.5 fold
Molecule = N=C(N)NCCC[C@H](NC(=O)[C@H](CCCNC(=N)N)NC(=O)[C@H](CCCNC(=N)N)NC(=O)[C@H](CCC(N)=O)NC(=O)[C@H](CCCNC(=N)N)NC(=O)[C@H](CCCNC(=N)N)NC(=O)[C@H](CCCCN)NC(=O)[C@H](CCCCN)NC(=O)[C@H](CCCNC(=N)N)NC(=O)[C@H](Cc1c[nH]c2ccccc12)NC(=O)[C@H](Cc1c[nH]c2ccccc12)NC(=O)[C@@H](N)CSSC[C@H](N)C(=O)N[C@@H](Cc1c[nH]c2ccccc12)C(=O)N[C@@H](Cc1c[nH]c2ccccc12)C(=O)N[C@@H](CCCNC(=N)N)C(=O)N[C@@H](CCCCN)C(=O)N[C@@H](CCCCN)C(=O)N[C@@H](CCCNC(=N)N)C(=O)N[C@@H](CCCNC(=N)N)C(=O)N[C@@H](CCC(N)=O)C(=O)N[C@@H](CCCNC(=N)N)C(=O)N[C@@H](CCCNC(=N)N)C(=O)N[C@@H](CCCNC(=N)N)C(=O)NCC(N)=O)C(=O)NCC(N)=O; test system = ROSA26-LSL-tdTomato mice, sensorimotor cortex; conditions = intracortical, 200 µM, region 2, added: TAT-Cre 40 µM; endpoint = tdTomato-positive astrocytes; value = ~50%
Molecule = C[C@@H](NC(=O)[C@@H](N)Cc1ccc(O)cc1)C(=O)NCC(=O)N(C)[C@@H](Cc1ccccc1)C(=O)NCCO; test system = C57BL/6 mouse striatal membranes; endpoint = EC50; value = 0.34 ± 0.02 µM
Molecule = COC[C@@H](NC(C)=O)C(=O)NCc1ccc(OCc2cccc(OC(F)(F)F)c2)cc1; test = 6 Hz seizures; test system = mouse; conditions = intraperitoneal; endpoint = ED50; value = 12 mg/kg
Molecule = C=CCCCOP(=O)(O)Oc1c2c(c(OP(=O)(O)OCCCC=C)c3c1C1CC3c3cc4c(cc31)C1CC4c3ccccc31)C1CC2c2cc3c(cc21)C1CC3c2ccccc21; test = liposome dye leakage; test system = liposomes 200 nm; conditions = 30 min, added: carboxyfluorescein 50 mM; endpoint = EC50; value = 19.4 µM
Molecule = CSCCNC(=O)CCC(C)C1CCC2C3C(O)CC4CC(O)CCC4(C)C3CCC12C (stereo not drawn); test = item: Shp; test system = SPF mice, ileum; conditions = oral gavage, dose not given; scale = reference: vehicle; endpoint = mRNA level; value = decreased
Molecule = somatostatin; test system = Sprague-Dawley rat, streptozotocin-induced diabetes, retina; conditions = eye drops, 10 mg/mL, score 3; endpoint = GFAP-positive glial activation; value = 0%
Molecule = CCc1nnc(-c2c(OC)cc(-c3cnc4cc(-c5cnn(C)c5)ccn34)cc2OC)o1; test = item: Sost; test system = male C57BL/6J mice; conditions = oral gavage, dose not given, 3 weeks; endpoint = mRNA level; value = decreased
Molecule = O=C(O)CCCC(=O)O; conditions = 500 µg/mL; endpoint = ABTS radical scavenging; value = 75.9 ± 1.81%
Molecule = O=C1C=CC(=O)C(c2cc(Cl)ccc2Cl)=C1; test = ELISPOT, item: IFNγ+ cells; test system = human peripheral blood; conditions = concentration not given, maximal induction, comparable dose; scale = reference: SSG; endpoint = fold induction; value = ~20 fold
Molecule = O=C(O)/C=C/c1cc(O)cc(O)c1; conditions = 62.5 µg/mL; endpoint = ABTS radical scavenging; value = 49.2 ± 1.26%
Molecule = O=C(O)/C=C/c1ccc(O)cc1; conditions = 1000 µg/mL; endpoint = ABTS radical scavenging; value = 84.4 ± 1%
Molecule = CCN(Cc1ccccc1)C(=O)CCc1nc(CN2CCN(C(=O)Cc3ccc(OC)c(OC)c3)CC2)no1; test = thermal withdrawal threshold, Hargreaves test; test system = mouse CCI model; conditions = 20 mg/kg, dosing from day 11; endpoint = onset day; value = 13 days
Molecule = N=C(N)NCCC[C@H](NC(=O)[C@H](Cc1c[nH]c2ccccc12)NC(=O)[C@H](CCCNC(=N)N)NC(=O)[C@H](CCCNC(=N)N)NC(=O)[C@@H]1CCCN1C(=O)[C@H](CCCCN)NC(=O)[C@@H](N)CCCNC(=N)N)C(=O)N[C@@H](Cc1c[nH]c2ccccc12)C(=O)N[C@@H](Cc1c[nH]c2ccccc12)C(=O)N1CCC[C@H]1C(=O)N[C@@H](CCCCN)C(=O)N[C@@H](CCCNC(=N)N)C(=O)N1CCC[C@H]1C(=O)O; test = ABTS; conditions = 1 mg/mL; endpoint = ABTS radical scavenging; value = 72%
Molecule = CC(=O)c1nn(-c2ccc(Cl)cc2)c2nc3nc(-c4ccccc4)cc(-c4ccc5ccccc5n4)c3c(=O)n12; test = DPPH scavenging, absorbance; conditions = 30 min; endpoint = IC50; value = 133 µM
Molecule = O=P(O)(OCc1cccc2ccccc12)Oc1c2c(c(OP(=O)(O)OCc3cccc4ccccc34)c3c1C1CC3c3cc4c(cc31)C1CC4c3ccccc31)C1CC2c2cc3c(cc21)C1CC3c2ccccc21; test = liposome dye leakage; test system = liposomes 200 nm; conditions = 30 min, added: carboxyfluorescein 50 mM; endpoint = EC50; value = 4.8 µM
Molecule = CC[C@H](C)[C@H](NC(=O)[C@@H](NC(=O)[C@H](CC(=O)O)NC(C)=O)[C@@H](C)O)C(=O)N[C@@H](CCCNC(=N)N)C(=O)N[C@@H](CC(C)C)C(=O)N[C@@H](CC(C)C)C(=O)N[C@@H](Cc1ccccc1)C(=O)N[C@@H](CCC(N)=O)C(=O)N[C@@H](CC(C)C)C(=O)N[C@@H](CCSC)C(=O)N[C@@H](CCCNC(=N)N)C(=O)N1CCC[C@H]1C(=O)N1CCC[C@H]1C(=O)N[C@@H](CC(N)=O)C(=O)N[C@@H](CCSC)C(=O)N[C@H](C(=O)N1CCC[C@H]1C(=O)N[C@@H](C)C(=O)N[C@H](C(=O)N[C@@H](CC(N)=O)C(=O)N[C@@H](C)C(N)=O)C(C)C)[C@@H](C)O; test = item: HA-51 tetramer; test system = tetramer+ CD4 T cells, PBMC, healthy adults, HLA-DRB1*0101; conditions = dose not given, CD62L−CD45RA+/− or CD62L+CD45RA−; endpoint = antigen-experienced T cells; value = 41.5%
Molecule = Cc1ccc(/C=C/C(=O)O)cc1-c1cc2c(cc1C)C(C)(C)CCC2(C)C; test = RNA sequencing, item: Cav1 mRNA; test system = rat, brain; conditions = dose not given, 24 h, single dose; scale = reference: vehicle; endpoint = log2 fold change; value = 0.62
Molecule = Cc1cc(Nc2nc(C[C@@]3(C(=O)O)CCN(Cc4cccc(Cl)c4F)[C@H](C)C3)cc(C)c2F)[nH]n1; test = item: phospho-histone H3 (Ser10); test system = NCI-H446 xenograft mice, tumour tissue; conditions = oral, 10 mg/kg single; endpoint = time to peak effect; value = 12 h
Molecule = CC(C)C[C@@H]1NC(=O)[C@@H](Cc2c[nH]c3ccccc23)NC(=O)[C@H](CCCNC(=N)N)NC(=O)[C@@H](CCC(=O)O)NC(=O)[C@H](CCC(N)=O)NC(=O)[C@@H](CCC(=O)O)NC(=O)[C@H](CCCNC(=N)N)NC(=O)[C@@H](Cc2c[nH]c3ccccc23)NC1=O; test system = mouse BALB/c; conditions = intraperitoneal, 20 mg/kg; endpoint = pre-beta HDL level; value = increased
Molecule = C#CCC(C)OP(=O)(O)Oc1c2c(c(OP(=O)(O)OC(C)CC#C)c3c1C1CC3c3cc4c(cc31)C1CC4c3ccccc31)C1CC2c2cc3c(cc21)C1CC3c2ccccc21 (stereo not drawn); test = liposome dye leakage; test system = liposomes 200 nm; conditions = 30 min, added: carboxyfluorescein 50 mM; endpoint = EC50; value = 60.9 µM
Molecule = CC[C@H](C)[C@H](NC(=O)[C@H](Cc1c[nH]c2ccccc12)NC(=O)[C@H](CCCNC(=N)N)NC(=O)[C@H](CCCCN)NC(=O)[C@H](CC(C)C)NC(=O)[C@H](CC(=O)O)NC(=O)[C@H](Cc1ccccc1)NC(=O)[C@H](C)NC(=O)[C@H](Cc1ccc(O)cc1)NC(=O)[C@H](CC(N)=O)NC(=O)[C@H](Cc1ccc(O)cc1)NC(=O)[C@H](CCCNC(=N)N)NC(=O)[C@H](Cc1ccc(O)cc1)NC(=O)[C@H](Cc1ccc(O)cc1)NC(=O)[C@@H](NC(=O)[C@H](CC(C)C)NC(=O)[C@H](C)NC(=O)[C@H](CC(N)=O)NC(=O)[C@H](Cc1ccc(O)cc1)NC(C)=O)[C@@H](C)CC)C(=O)N[C@@H](Cc1ccc(O)cc1)C(=O)N[C@@H](CC(C)C)C(N)=O; test = item: HA-51 tetramer; test system = tetramer+ CD4 T cells, PBMC, healthy adults, HLA-DRB1*0101; conditions = dose not given, CD62L−CD45RA+/− or CD62L+CD45RA−; endpoint = antigen-experienced T cells; value = 37.5%
Molecule = CC1=C(C(=O)Nc2ccc(C)cc2)C(c2ccccc2Br)NC(=S)N1 (stereo not drawn); test = carotid artery cannulation; test system = male Wistar rats, anaesthetised; conditions = 0.3 mL, 3 h; endpoint = mean arterial pressure; value = 23.5 ± 0.73 mm Hg
